Published values of several laboratories.
Numbered parts are unrelated; each lists some results of a single study. Changes are numbered by the printed parent chain.

Series 1
Target: CCNA1, cyclin fold, Cln2 fusion (human)
Method: yeast growth competition, sequencing
Matrix: yeast
Notes: weak parent motif
Baseline: not given
Reading: higher = stronger binding
Starting sequence: PKN2 docking peptide (human); VSAVQKLDFSDTM
`S2L` — result for “normalised enrichment score”: 0.234.
For `T12M`, “normalised enrichment score” read 0.0735.
For `V1G`, “normalised enrichment score” read 0.0335.
`V4P`: “normalised enrichment score” -0.051.

Series 2
Target: Histone acetyltransferase KAT6A, both winged helices, GST fusion (KAT6A, Homo sapiens, UniProt Q92794, residues 1-181)
Method: protein binding microarray
Form: double-stranded DNA, one strand shown
Matrix: in vitro
Tested at: not given
Notes: 8-mer, flanks averaged, mean of 2 arrays, mostly near background
Baseline: not given
Reading: higher = stronger binding
Construct (chain): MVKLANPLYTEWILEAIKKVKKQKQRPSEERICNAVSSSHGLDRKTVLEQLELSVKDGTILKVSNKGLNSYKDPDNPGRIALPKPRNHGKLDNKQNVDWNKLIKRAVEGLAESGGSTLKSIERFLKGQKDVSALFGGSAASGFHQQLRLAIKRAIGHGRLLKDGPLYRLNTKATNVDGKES
`ATTAGGAG` has an E-score of -0.176.
For `CGCGAACC`, the E-score was 0.235.
The E-score of `ATGGCCTC` is reported as -0.296.
The E-score of `AGGTATAG` is reported as -0.235.
`GCAGTAGC` has an E-score of -0.0463.
`CACAGATA` has an E-score of -0.159.
`GCTCTAGA` has an E-score of -0.0301.

Series 3
Target: RING finger protein unkempt homolog, zinc fingers 1-6, GST-SBP tag (UNK, Homo sapiens, UniProt Q9C0B0, residues 30-357)
UniProt Q9C0B0, sequence (30-357, looked up): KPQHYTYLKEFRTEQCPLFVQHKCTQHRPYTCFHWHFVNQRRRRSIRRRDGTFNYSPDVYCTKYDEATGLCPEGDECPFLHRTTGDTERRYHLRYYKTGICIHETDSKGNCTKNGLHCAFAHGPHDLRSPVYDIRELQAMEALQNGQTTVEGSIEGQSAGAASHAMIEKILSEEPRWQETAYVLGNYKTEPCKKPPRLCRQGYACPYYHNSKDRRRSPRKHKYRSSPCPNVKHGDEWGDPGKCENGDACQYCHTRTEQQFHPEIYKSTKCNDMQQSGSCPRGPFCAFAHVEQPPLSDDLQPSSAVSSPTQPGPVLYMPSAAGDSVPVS
Method: RNA Bind-n-Seq
Form: RNA
Matrix: in vitro
Tested at: not given
Notes: RNA with constant flanks, human and mouse sites, ends assumed
Baseline: input RNA pool
Reading: higher = stronger binding
Shared flanks, not repeated: GGGAGUUCUACAGUCCGACGAUC … CAACAGAGGAUUGAGCAUCA
With `GACAUAAAAUCAGUCUUUCACUAACUAACCUCUAUUCCUUGGGAUUGUAGAAAUUUAAUUUUUUAAUGUGUAAAUUACUCCUACCCUGUACAGCUGUUUCCUACCCACUCUUGUAAACUC` the bound/input enrichment was 0.935 ratio.
`CUUACCUCUUACAAAAAAAAGAAAAAAAAAGAAAAAGUUCAUUUCUUCAUUCUGUUUGUAUCUAGCGAAGCUGAAUGUCAGAAGCCCCUCUGUCCACACACAAAGUCUGCAUGUAUUGGU` gave a bound/input enrichment of 0.414 ratio.
The bound/input enrichment of `CACACUGCUGCUAUGGAUAUGCUGGGAGGAUCUGGUGUUGAAAACCAAUGUAGAAAAGUUGACAUCAUUGCGGACGCUGCAUAUUCCAUUUUCAAAAGGCCAAAAAGUUUUACUGGCAAC` is reported as 0.186 ratio.
For `CAUUCCAAAUAUUCCCCUUUUCUCUACCCCCACCUCCCUUUUGCCCCAGCAACCCAGAACACGAGUCACGCCGCAAACUUUAGGAAGUACCAUUUUCAUCUUCUCCACUGUGCGCGUGCG`, the bound/input enrichment was 1.35 ratio.
The bound/input enrichment of `UUGUCAUCUGCACCUUUGCACUUUCCUUUCUCUUGUGUUAUUUUUUUUAUUUUUUUUGUCUUUUCUAGACUCUCUUCCCCCCUUUUUGAGUUGUUGGGCAGUUCUUAUUUCUUGCUUGCU` is reported as 20.1 ratio.

Single results of other studies
`PhoQ, residues 284 288 289 292 302 303 SCCLKL` gave a fold induction of 1.51 (PhoP, residues 12 14 15 18 19 LHSVW (Escherichia coli, UniProt P23836); Sort-seq, item: YFP reporter; E. coli; PhoQ-PhoP variant library, together with: 10 µM Mg2+; baseline: high Mg2+ state, higher = stronger signaling).

For quick reference, copied from above (series 2):
`GCTCTAGA` has an E-score of -0.0301.
`ATTAGGAG` has an E-score of -0.176.
